Results collected from several papers.
Each numbered part is a random draw from the data of one study; scales do not carry over between parts. Several values in a cell are separate wells, animals, samples, runs or records.
Sequence of UniProt P50750 (whole entry, looked up): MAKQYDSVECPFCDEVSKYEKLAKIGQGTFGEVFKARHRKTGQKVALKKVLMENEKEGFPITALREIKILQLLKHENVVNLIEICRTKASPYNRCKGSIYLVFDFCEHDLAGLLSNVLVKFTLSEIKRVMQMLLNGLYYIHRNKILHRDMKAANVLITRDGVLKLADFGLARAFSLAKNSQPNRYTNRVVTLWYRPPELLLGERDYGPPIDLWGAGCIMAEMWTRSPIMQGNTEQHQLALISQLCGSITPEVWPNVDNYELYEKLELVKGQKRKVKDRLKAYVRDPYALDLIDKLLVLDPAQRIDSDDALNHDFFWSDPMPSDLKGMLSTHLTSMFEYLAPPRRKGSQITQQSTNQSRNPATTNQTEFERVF

Sample 1
SMILES: CCN(CC)CC(=O)N1CCN(c2nc(NCc3nc4cc(Cl)c(Cl)cc4[nH]3)c3ncn(CC)c3n2)CC1
Action: inhibitor
CDK7: Cyclin-dependent kinase 7 (CDK7, Homo sapiens, UniProt P50613)
Sequence of UniProt P50613 (whole entry, looked up): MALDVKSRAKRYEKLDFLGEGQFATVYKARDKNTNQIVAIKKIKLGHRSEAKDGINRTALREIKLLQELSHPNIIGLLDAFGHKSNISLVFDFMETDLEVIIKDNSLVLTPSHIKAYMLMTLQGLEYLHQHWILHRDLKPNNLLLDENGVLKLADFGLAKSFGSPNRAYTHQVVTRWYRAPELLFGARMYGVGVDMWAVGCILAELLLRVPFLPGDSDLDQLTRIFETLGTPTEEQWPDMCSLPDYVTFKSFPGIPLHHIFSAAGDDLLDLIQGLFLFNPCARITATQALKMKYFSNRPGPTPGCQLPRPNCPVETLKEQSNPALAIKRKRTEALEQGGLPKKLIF
CDK12 with cyclin K: Cyclin-dependent kinase 12, with cyclin K (CDK12, Homo sapiens, UniProt Q9NYV4)
Sequence of UniProt Q9NYV4 (whole entry, looked up): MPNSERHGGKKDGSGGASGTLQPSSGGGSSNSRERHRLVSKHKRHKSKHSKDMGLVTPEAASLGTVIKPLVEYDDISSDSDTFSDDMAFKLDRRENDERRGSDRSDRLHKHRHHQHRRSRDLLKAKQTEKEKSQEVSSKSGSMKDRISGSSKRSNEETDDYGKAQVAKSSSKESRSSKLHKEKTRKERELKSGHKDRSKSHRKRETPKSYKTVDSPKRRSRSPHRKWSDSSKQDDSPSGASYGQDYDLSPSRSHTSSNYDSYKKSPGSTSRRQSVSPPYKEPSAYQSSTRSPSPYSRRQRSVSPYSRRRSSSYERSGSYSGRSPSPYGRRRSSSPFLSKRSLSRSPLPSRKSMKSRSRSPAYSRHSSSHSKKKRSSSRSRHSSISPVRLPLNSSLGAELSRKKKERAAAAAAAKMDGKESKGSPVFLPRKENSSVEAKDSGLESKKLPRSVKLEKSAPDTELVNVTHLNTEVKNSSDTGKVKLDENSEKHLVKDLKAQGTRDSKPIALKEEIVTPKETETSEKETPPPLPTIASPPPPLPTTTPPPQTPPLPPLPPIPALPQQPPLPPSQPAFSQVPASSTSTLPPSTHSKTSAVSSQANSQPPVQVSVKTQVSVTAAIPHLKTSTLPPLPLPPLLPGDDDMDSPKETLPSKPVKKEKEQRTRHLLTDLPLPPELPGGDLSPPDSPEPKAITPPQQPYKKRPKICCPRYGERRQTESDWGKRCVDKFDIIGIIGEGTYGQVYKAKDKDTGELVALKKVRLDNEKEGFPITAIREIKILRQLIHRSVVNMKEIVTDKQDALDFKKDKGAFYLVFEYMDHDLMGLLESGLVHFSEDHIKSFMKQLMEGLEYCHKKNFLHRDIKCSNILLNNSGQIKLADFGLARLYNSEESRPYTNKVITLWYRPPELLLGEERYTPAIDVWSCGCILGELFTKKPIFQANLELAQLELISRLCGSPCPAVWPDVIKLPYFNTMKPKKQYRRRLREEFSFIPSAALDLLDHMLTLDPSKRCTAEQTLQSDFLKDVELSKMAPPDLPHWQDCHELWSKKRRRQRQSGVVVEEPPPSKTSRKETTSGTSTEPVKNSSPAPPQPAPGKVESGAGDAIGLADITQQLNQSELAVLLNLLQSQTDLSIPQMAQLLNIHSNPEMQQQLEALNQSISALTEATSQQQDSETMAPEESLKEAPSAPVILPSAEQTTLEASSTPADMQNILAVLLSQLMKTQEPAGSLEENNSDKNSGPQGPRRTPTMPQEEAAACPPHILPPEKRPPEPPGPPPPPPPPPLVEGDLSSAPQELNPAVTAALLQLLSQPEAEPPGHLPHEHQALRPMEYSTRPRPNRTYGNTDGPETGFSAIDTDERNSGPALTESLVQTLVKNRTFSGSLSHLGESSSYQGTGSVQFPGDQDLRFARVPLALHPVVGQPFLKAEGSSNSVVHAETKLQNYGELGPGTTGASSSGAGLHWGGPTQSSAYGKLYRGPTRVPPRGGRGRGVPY
CDK2: Cyclin-dependent kinase 2 (CDK2, Homo sapiens, UniProt P24941)
target	test	setting	inhibition
CDK7	enzyme activity, ADP detection	1.111 µM	20.3%
CDK12 with cyclin K	kinase activity, ADP-Glo	0.0247 µM	14.4%
CDK2	enzyme activity, ADP detection	13.7 nM	5%
CDK12 with cyclin K	kinase activity, ADP-Glo	0.0082 µM	2%
CDK12 with cyclin K	kinase activity, ADP-Glo	0.0001 µM	3.1%
CDK7	enzyme activity, ADP detection	0.1235 µM	31.6%
CDK2	enzyme activity, ADP detection	1.111 µM	-5.1%
CDK12 with cyclin K	kinase activity, ADP-Glo	0.0741 µM	20%
CDK7	enzyme activity, ADP detection	10 µM	78%
CDK12 with cyclin K	kinase activity, ADP-Glo	0.2222 µM	43.1%
CDK7	enzyme activity, ADP detection	41.2 nM	-4.6%
CDK2	enzyme activity, ADP detection	3.333 µM	0.8%
CDK9 (Homo sapiens, UniProt P50750)	enzyme activity, ADP detection	4.6 nM	1.6%

Sample 2
SMILES: Cc1ncsc1-c1ccc(C(CO)NC(=O)C2CC(O)CN2C(=O)C(C(C)C)n2cc(-c3ccc(COc4c(-c5c(C)c(F)cc6[nH]ncc56)c(C5CC5)cc5c(N6CC7CC6CN7)nc(OC6CCOCC6)nc45)cc3)nn2)cc1 (stereo not drawn)
system	setting	tumour volume
mouse, lung LXFA sample A PDX	30 mg/kg twice weekly, day 2	83.3 mm3 and 283 mm3 and 115 mm3 and 214 mm3 and 111 mm3 and 134 mm3 and 51.6 mm3 and 190 mm3
mouse, lung LXFA sample B PDX	30 mg/kg twice weekly, day 11	56.2 mm3 and 61 mm3 and 53.9 mm3 and 130 mm3 and 124 mm3 and 57.1 mm3 and 81.1 mm3 and 28.2 mm3
mouse, PK-59 xenograft	10 mg/kg, day 17	208 mm3 and 187 mm3 and 242 mm3 and 213 mm3 and 182 mm3
mouse, PK-59 xenograft	0.3 mg/kg, day 0	238 mm3 and 268 mm3 and 312 mm3 and 324 mm3 and 304 mm3
PK-1 xenograft, mouse	30 mg/kg twice weekly, day 7	153 mm3 and 177 mm3 and 131 mm3 and 142 mm3 and 85.6 mm3
ASPC1 xenograft, mouse	30 mg/kg twice weekly, day 7	219 mm3 and 179 mm3 and 139 mm3 and 165 mm3 and 140 mm3
ASPC1 xenograft, mouse	30 mg/kg once weekly, day 4	185 mm3 and 156 mm3 and 178 mm3 and 154 mm3 and 176 mm3

Sample 3
Compound: CC(C)(C)c1ccc(Oc2ccc3c(c2)OC(O)(C(=O)O)C(=O)N3Cc2ccccc2)cc1 (stereo not drawn)
organism	test	system	setting	inhibition
Arabidopsis thaliana	hypocotyl length	Col-0	6.25 µg/mL, 7 days, seed germination, dark	15.4%
Zea mays	fresh weight	–	soil surface spray, 150 g ai/ha, 21 days, pre-emergence crop safety	0.25% and 0.2% and 0.4%
Oryza sativa	fresh weight	–	soil surface spray, 150 g ai/ha, 21 days, pre-emergence crop safety	8% and 9.2% and 7%
Arabidopsis thaliana	root length	Col-0, seedlings	100 µg/mL	89.7%
Arabidopsis thaliana	hypocotyl length	Col-0	3.125 µg/mL, 7 days, seed germination, dark	4.6%
Arabidopsis thaliana	root length	Col-0	6.25 µg/mL, 7 days, seed germination, dark	22.6%
Alopecurus aequalis	fresh weight	–	150 g ai/ha, pre-emergence treatment	84.2% and 83.1% and 80.5%
Setaria viridis	fresh weight	–	150 g ai/ha, pre-emergence treatment	81.4% and 82.3% and 83.2%
Arabidopsis thaliana	root length	Col-0, seedlings	12.5 µg/mL	38.5%
Abutilon theophrasti	fresh weight	–	150 g ai/ha, pre-emergence treatment	24.6% and 25.6% and 21.5%
Arabidopsis thaliana	hypocotyl length	Col-0, seedlings	3.125 µg/mL	4.64%
Arabidopsis thaliana	hypocotyl length	Col-0, seedlings	25 µg/mL	28.2%
Arabidopsis thaliana	root length	Col-0	50.0 µg/mL, 7 days, seed germination, dark	64.8%
Alopecurus japonicus	fresh weight	–	150 g ai/ha, pre-emergence treatment	57.7% and 60.4% and 58.9%

Sample 4
Compound: CCN1/C(=C/C=C2\CCCC(/C=C/C3=[N+](CC)c4ccccc4C3(C)C)=C2NCCCCCCCCN2CCC(Nc3nc4ccccc4n3Cc3ccc(F)cc3)CC2)C(C)(C)c2ccccc21
Cell line: U-87 MG
Concentration: concentration not given
Baseline: DMSO
test	log2 fold change
measured: COL7A1 mRNA	-0.963
measured: FANCG mRNA	-1.29
measured: PLK3 mRNA	1.18
measured: RYBP mRNA	1.08
measured: TOM1 mRNA	0.827
measured: KIF22 mRNA	-1.63
measured: PLSCR4 mRNA	-1.37
measured: DDIT4L mRNA	-2.5
measured: HACD1 mRNA	-1.25
measured: MYORG mRNA	-0.933
measured: GPRIN3 mRNA	-2.07

Excerpt of the above (sample 3):
organism	test	system	setting	inhibition
Oryza sativa	fresh weight	–	soil surface spray, 150 g ai/ha, 21 days, pre-emergence crop safety	8% and 9.2% and 7%
Arabidopsis thaliana	root length	Col-0	6.25 µg/mL, 7 days, seed germination, dark	22.6%
Arabidopsis thaliana	hypocotyl length	Col-0, seedlings	3.125 µg/mL	4.64%
Arabidopsis thaliana	root length	Col-0	50.0 µg/mL, 7 days, seed germination, dark	64.8%
